Experimental data gathered from unrelated publications.
Each line is one published result; not all experiments were run side by side. Several values in a cell are separate wells, animals, samples, runs or records. ± gives the spread as reported.

For `CCOC(=O)c1cc(C#N)c(=O)n(NS(=O)(=O)c2ccccc2)c1N`, “maximum non-toxic concentration” read 100 µg/mL (FRhK-4; 72 h).
With `COc1cc(/C=C/C(=O)/C=C/c2ccc(O)c(OC)c2)ccc1O` the viability was 84% and 84.3% (WRL68; MTT; 0.8 µg/mL, 48 h, 10% FBS).
Under “maximum non-toxic concentration”, `CC(=O)CNc1nc(NS(=O)(=O)c2ccccc2)ncc1-c1nc2ccccc2s1` is recorded as 80 µg/mL (FRhK-4; cytotoxicity; 72 h).
Under “maximum non-toxic concentration”, `CSc1c(-c2nc3ccccc3[nH]2)c(N)n(NS(=O)(=O)c2ccccc2)c(=O)c1C#N` is recorded as 100 µg/mL (FRhK-4; 72 h).
For `O=C(Nc1ccc(F)c(Br)c1)c1ccc2c(c1)C(=O)NC2=O`, viability read “not toxic” (SH-SY5Y; MTT; 1 to 20 µM, 24 h).
Under cytotoxicity, `c1ccc(CN(CCN(Cc2ccccn2)Cc2ccccn2)Cc2ccccn2)nc1` is recorded as “toxic” (LUHMES MT1G-HiBiT neurons, differentiated; concentration not given).
Under “maximum non-toxic concentration”, `Cc1ccc(-c2nc(NS(=O)(=O)c3ccccc3)nc(N)c2-c2nc3ccccc3s2)cc1` is recorded as 90 µg/mL (FRhK-4; cytotoxicity; 72 h).
`CCOC(=O)C1CCN(C(=O)c2ccc(N(C)Cc3cnc4nc(N)nc(N)c4n3)cc2)CC1` has a CC50 of 50 to 100 µM (THP-1-derived macrophages; MTT).
Under viability, `CCCN1CCCC[C@H]1C(=O)Nc1c(C)cccc1C` is recorded as “no effect” (PC-12; MTS; 1 to 3 mM, 24 h; reference: prilocaine).
`CC1(C)[C@@H](O[C@H]2O[C@H](C(=O)O)[C@@H](O)[C@H](O)[C@H]2O[C@@H]2O[C@H](C(=O)O)[C@@H](O)[C@H](O)[C@H]2O)CC[C@]2(C)[C@H]3C(=O)C=C4[C@@H]5C[C@@](C)(C(=O)O)CC[C@]5(C)CC[C@@]4(C)[C@]3(C)CC[C@@H]12` gave a transport rate of 1.9 ± 0.4 pmol/min/mg protein (mock HEK293; 50 µM, 10 min).
`Cc1cc(C(=O)NC(C)(C)COc2cccc3c2C(N)=NS(=O)(=O)N3)cc(C)n1`: “micronucleated binucleated cells” 0.3% (human peripheral blood lymphocytes; in vitro micronucleus test; 500 µg/mL, 4 h, with rat liver S9 activation, DMSO 0.4%).
`Nc1nc(N)c2nc(CNc3ccc(C(=O)NCCc4ccccc4)cc3)cnc2n1` gave a CC50 of 25 to 50 µM (THP-1-derived macrophages; MTT).
For `COc1cc2ncnc(Nc3ccc(Oc4ccccc4)c(C)c3C)c2cc1OC.Cl`, the viability fraction was 0.838 and 0.846 and 0.844 and 0.808 and 1.02 and 0.921 and 0.751 and 0.898 (SW-620 (KRAS G12V); resazurin; concentration not given, 72 h, together with: trametinib 0 nM).
With `CCN(Cc1cnc2nc(N)nc(N)c2n1)c1ccc(C(=O)N2CCC(C(=O)OC)CC2)cc1` the CC50 was > 100 µM (THP-1-derived macrophages; MTT).
With `O=C(Nc1cc(F)c(F)c(F)c1)c1ccc(F)c(S(=O)(=O)NCc2ccc(B(O)O)cc2)c1` the CC50 was 6.29 ± 0.36 µM (HepAD38 cells; CCK-8; 6 days).
With `COc1cc(Oc2ccc(CNCc3cnc4nc(N)nc(N)c4n3)cc2)cc(OC)c1OC` the CC50 was 50 to 100 µM (THP-1-derived macrophages; MTT).
Under “maximum non-toxic concentration”, `CSc1nc(NS(=O)(=O)c2ccc(C)cc2)nc(N)c1-c1nc2ccccc2s1` is recorded as 100 µg/mL (FRhK-4; cytotoxicity; 72 h).
`COC(=O)C1CCN(C(=O)c2ccc(N(CCCO)Cc3cnc4nc(N)nc(N)c4n3)cc2)CC1` gave a CC50 of > 100 µM (THP-1-derived macrophages; MTT).
`Nc1nc(NS(=O)(=O)c2ccccc2)nc(-c2ccc(F)cc2)c1-c1nc2ccccc2s1`: “maximum non-toxic concentration” 100 µg/mL (FRhK-4; cytotoxicity; 72 h).
With `CCOC(=O)C1CCCN1C(=O)c1ccc(NCc2cnc3nc(N)nc(N)c3n2)cc1` (stereo not drawn) the CC50 was > 100 µM (THP-1-derived macrophages; MTT).
The CC50 of `CC(C)c1cnn2c(NCc3ccccc3-n3cccn3)nc(OC3CCCNC3)nc12` (stereo not drawn) is reported as > 10 µM (primary human fibroblasts; uninfected).

Some of these lines once more:
Under “maximum non-toxic concentration”, `CC(=O)CNc1nc(NS(=O)(=O)c2ccccc2)ncc1-c1nc2ccccc2s1` is recorded as 80 µg/mL (FRhK-4; cytotoxicity; 72 h).
Under “maximum non-toxic concentration”, `CSc1c(-c2nc3ccccc3[nH]2)c(N)n(NS(=O)(=O)c2ccccc2)c(=O)c1C#N` is recorded as 100 µg/mL (FRhK-4; 72 h).
